Results pooled from the literature.
Protocols differ between the studies behind these lines. Square brackets hold non-standard residues; d marks the D form. Ends that are not written are not given here.
B1: FGF14 (Homo sapiens, UniProt Q92915-2); chain MVKPVPLFRRTDFKLLLCNHKDLFFLRVSKLLDCFSPKSMWFLWNIFSKGTHMLQCLCGKSLKKNKNPTDPQLKGIVTRLYCRQGYYLQMHPDGALDGTKDDSTNSTLFNLIPVGLRVVAIQGVKTGLYIAMNGEGYLYPSELFTPECKFKESVFENYYVIYSSMLYRQQESGRAWFLGLNKEGQAMKGNRVKKTKPAAHFLPKPLEVAMYREPSLHDVGETVPKPGVTPSKSTSASAIMNGGKPVNKSKTT
B2: UGT1A9 (Homo sapiens, UniProt O60656); chain GKLLVVPMDGSHWFTMRSVVEKLILRGHEVVVVMPEVSWQLGRSLNCTVKTYSTSYTLEDLDREFKAFAHAQWKAQVRSIYSLLMGSYNDIFDLFFSNCRSLFKDKKLVEYLKESSFDAVFLDPFDNCGLIVAKYFSLPSVVFARGILCHYLEEGAQCPAPLSYVPRILLGFSDAMTFKERVRNHIMHLEEHLLCHRFFKNALEIASEILQTPVTEYDLYSHTSIWLLRTDFVLDYPKPVMPNMIFIGGINCHQGKPLPMEFEAYINASGEHGIVVFSLGSMVSEIPEKKAMAIADALGKIPQTVLWRYTGTRPSNLANNTILVKWLPQNDLLGHPMTRAFITHAGSHGVYESICNGVPMVMMPLFGDQMDNAKRMETKGAGVTLNVLEMTSEDLENALKAVINDKSYKENIMRLSSLHKDRPVEPLDLAVFWVEFVMRHKGAPHLRPAAHDLTWYQYHSLDVIGFLLAVVLTVAFITFKCCAYGYRKCLGKKGRVKKAHKSKTH
Sequence of UniProt P29350 (whole entry, unmodified, looked up): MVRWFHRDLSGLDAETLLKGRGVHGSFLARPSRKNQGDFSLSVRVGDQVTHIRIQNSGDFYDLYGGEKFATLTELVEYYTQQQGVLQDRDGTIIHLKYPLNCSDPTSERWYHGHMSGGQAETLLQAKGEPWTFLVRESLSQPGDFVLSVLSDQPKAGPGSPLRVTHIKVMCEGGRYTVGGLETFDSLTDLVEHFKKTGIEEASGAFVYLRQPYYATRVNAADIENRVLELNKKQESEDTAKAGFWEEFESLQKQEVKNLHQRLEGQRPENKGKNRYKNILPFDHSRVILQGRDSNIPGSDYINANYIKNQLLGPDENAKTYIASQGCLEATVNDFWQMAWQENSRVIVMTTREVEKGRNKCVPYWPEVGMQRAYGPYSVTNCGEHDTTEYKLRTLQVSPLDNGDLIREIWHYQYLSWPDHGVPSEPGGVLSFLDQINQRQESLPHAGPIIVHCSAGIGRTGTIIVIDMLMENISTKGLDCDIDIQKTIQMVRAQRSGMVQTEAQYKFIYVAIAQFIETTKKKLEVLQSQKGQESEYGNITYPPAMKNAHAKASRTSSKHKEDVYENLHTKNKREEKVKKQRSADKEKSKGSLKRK
Sequence of UniProt P09038 (whole entry, looked up): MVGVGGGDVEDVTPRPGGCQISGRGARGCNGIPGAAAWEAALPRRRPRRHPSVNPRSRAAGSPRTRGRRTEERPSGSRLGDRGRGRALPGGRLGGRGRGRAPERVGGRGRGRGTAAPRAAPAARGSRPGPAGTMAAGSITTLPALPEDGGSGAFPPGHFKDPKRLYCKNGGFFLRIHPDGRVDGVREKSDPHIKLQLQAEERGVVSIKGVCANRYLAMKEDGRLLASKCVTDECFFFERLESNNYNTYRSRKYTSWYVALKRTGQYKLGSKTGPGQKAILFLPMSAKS
Sequence of UniProt Q61851 (whole entry, looked up): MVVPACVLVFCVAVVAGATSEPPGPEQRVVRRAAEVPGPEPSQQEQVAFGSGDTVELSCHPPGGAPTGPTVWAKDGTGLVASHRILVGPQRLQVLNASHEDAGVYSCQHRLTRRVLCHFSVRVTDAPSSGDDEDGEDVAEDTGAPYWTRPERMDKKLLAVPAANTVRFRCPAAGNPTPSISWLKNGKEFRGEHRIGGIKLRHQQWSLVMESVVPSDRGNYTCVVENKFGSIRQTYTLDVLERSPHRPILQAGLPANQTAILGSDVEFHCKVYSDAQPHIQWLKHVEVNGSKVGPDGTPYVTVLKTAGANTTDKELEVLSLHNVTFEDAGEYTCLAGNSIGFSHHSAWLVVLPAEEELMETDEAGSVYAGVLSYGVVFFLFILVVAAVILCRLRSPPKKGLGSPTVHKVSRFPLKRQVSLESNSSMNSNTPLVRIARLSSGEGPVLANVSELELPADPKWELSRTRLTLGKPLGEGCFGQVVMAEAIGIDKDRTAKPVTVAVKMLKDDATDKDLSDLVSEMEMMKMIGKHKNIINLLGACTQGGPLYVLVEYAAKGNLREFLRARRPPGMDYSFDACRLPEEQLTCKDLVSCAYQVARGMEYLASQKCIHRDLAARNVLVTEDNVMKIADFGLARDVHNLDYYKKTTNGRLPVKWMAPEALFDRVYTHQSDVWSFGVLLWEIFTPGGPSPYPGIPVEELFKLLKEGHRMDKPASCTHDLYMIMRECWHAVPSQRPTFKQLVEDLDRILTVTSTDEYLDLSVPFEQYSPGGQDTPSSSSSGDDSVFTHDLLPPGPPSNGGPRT
Sequence of UniProt P15873 (whole entry, unmodified, looked up): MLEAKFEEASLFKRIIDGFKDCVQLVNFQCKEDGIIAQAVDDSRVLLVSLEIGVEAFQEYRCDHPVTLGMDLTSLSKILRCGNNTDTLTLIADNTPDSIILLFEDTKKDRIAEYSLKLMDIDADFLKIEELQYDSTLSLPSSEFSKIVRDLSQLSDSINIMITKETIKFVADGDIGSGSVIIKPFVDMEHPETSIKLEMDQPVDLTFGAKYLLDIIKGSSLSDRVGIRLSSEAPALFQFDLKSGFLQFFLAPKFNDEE
Sequence of UniProt P06702 (whole entry, looked up): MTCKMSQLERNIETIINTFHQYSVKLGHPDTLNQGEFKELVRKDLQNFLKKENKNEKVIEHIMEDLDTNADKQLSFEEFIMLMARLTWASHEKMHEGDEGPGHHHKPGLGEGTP
Sequence of UniProt P29597 (whole entry, looked up): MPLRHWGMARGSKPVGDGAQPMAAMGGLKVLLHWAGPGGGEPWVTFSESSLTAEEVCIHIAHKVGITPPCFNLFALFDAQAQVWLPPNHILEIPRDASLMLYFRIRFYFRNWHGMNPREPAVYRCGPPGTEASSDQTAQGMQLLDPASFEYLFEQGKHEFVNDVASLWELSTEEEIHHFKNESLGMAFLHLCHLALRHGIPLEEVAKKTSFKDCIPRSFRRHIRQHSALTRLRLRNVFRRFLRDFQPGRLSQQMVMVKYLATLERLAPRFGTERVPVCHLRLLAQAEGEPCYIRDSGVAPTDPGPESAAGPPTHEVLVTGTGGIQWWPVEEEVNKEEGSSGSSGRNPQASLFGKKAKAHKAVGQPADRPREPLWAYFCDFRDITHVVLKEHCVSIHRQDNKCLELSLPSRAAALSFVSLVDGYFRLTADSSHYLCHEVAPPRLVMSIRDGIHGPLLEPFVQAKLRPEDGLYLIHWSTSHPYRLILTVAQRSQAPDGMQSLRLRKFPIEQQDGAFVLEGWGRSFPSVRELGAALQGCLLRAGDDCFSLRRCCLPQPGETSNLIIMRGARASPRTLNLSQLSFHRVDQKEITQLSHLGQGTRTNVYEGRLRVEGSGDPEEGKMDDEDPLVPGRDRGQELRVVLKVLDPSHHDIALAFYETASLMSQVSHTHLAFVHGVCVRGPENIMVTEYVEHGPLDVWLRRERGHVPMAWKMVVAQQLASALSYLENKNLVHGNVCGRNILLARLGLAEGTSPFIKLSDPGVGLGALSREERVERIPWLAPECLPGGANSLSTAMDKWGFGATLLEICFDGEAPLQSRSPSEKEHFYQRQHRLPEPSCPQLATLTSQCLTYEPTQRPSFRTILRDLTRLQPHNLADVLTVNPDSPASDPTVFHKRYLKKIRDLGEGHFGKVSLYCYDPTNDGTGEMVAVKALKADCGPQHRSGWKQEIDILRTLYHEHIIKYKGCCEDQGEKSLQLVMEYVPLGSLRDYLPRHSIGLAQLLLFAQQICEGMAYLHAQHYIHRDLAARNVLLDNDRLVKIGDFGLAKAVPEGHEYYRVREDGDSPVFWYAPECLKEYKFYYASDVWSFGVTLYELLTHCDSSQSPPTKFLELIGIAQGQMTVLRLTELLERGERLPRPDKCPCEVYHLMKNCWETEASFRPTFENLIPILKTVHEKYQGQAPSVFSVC
Sequence of UniProt Q01970 (whole entry, looked up): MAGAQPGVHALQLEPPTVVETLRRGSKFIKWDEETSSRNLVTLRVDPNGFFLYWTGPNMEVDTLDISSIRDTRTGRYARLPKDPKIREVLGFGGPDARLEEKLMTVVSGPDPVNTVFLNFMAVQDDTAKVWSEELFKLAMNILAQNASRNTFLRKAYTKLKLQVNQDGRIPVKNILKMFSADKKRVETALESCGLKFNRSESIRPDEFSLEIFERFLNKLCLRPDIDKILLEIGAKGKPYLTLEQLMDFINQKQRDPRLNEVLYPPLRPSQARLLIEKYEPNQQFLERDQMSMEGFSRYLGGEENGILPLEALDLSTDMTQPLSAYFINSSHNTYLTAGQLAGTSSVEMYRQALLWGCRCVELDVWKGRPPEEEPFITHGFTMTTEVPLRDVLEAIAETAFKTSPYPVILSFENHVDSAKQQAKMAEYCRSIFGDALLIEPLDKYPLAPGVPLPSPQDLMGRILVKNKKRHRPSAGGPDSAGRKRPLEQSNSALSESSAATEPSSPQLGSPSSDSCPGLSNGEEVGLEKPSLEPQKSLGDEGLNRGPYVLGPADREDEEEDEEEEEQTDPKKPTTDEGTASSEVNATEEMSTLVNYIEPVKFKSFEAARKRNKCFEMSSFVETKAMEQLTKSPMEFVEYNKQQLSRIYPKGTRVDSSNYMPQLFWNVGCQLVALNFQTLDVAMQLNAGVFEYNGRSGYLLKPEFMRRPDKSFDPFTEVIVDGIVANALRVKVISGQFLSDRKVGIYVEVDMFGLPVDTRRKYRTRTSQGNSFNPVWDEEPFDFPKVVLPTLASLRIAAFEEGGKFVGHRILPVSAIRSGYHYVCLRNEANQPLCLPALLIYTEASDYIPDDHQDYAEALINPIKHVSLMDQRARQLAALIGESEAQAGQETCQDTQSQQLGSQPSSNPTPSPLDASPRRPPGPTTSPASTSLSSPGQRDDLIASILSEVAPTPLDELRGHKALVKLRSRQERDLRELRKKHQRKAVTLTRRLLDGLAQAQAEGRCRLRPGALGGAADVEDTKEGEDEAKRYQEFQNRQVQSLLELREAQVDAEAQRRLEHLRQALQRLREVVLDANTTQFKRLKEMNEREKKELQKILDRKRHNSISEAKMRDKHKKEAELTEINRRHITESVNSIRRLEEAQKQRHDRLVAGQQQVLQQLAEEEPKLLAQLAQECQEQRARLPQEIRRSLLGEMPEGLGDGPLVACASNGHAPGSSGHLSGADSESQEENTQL

Substance	tested on	test	system	conditions	how to read	endpoint	result
IDEYFSEQPLKNLLLSTSAEQIEKCFIIENISTIA (IFNAR1 478-512 E496A (Homo sapiens, UniProt P17181))	TYK2 23-583 (Homo sapiens, UniProt P29597)	differential scanning fluorimetry	peptide	–	–	apparent Tm reduction	1 °C
B1 (FGF14)	CD4/SCN8A/NLuc Nav1.6 C-terminal tail	split-luciferase complementation	HEK293	–	higher = more interaction	peak luminescence	13200 RLU
B2 (UGT1A9)	O=c1c(O)c(-c2ccccc2)oc2ccccc12	steady-state kinetics	–	pH 7.4, 37 °C	–	Vmax/Km	7000 µL/min/mg
FGF2 (Homo sapiens, UniProt P09038)	FGFR3 isoform IIIc (unknown, UniProt Q61851)	cell proliferation, MTT	BaF3-FGFR3c	20 nM, 48 h, together with: heparan sulfate 4.9 µg/mL	reference: FGF 1 with heparin, higher = more proliferation	cell proliferation	48%
Tnfrsf11b CRD (Mus musculus)	Tnfsf11 162-316 (Mus musculus, UniProt O35235-1)	SPR	–	–	reference: RANK, higher = faster association	relative on-rate	30 fold
S. cerevisiae FACT complex	HTB1/HTA1 (Saccharomyces cerevisiae, UniProt P02293+P04911)	EMSA	–	first binding event, together with: FACT 200 nM	–	Kd	~100 nM
Ac-TASSEV-NH2 (PLCB3 residues 579-584, N-acetyl, C-amide (Homo sapiens); N-acetyl, C-amide)	PLCB3 (Homo sapiens, UniProt Q01970)	ACh-induced Ca2+ response	peptide, HEK293	100 µM, 1 h	reference: vehicle, higher = stronger reduction	reduction	39.5%
ETDKE[pY][pY]TVKD (JAK1 1029-1039; pY1034/pY1035; pY = N[C@@H](Cc1ccc(OP(=O)(O)O)cc1)C(=O)O)	PTPN6 243-530 Q252A/C453S (Homo sapiens, UniProt P29350)	ITC	peptide	pH 8.0, 25 °C, NaCl 100 mM	–	molecule per partner	0.9
RFC1/RFC2/RFC3/RFC4/RFC5 Rfc1 284-end (Saccharomyces cerevisiae)	POL30 1-258 C22S/C62S/C81S/S43C, MDCC on Cys43 (Saccharomyces cerevisiae, UniProt P15873)	stopped-flow fluorescence	–	20 °C, together with: ATP 0.5 mM	–	release rate constant	0.26 s⁻¹
human cathepsin G	Protein S100-A9 (S100A9, Homo sapiens, UniProt P06702)	ELISA	–	up to 100 nM	–	binding	no binding
CALM1 T26C, Alexa Fluor 568 at C26 (sequence not shown)	Camk2d T287D (Rattus norvegicus)	FRET	–	rapid Ca chelation	–	dissociation time constant	1400 ms

A few entries again:
Substance	tested on	test	system	conditions	how to read	endpoint	result
IDEYFSEQPLKNLLLSTSAEQIEKCFIIENISTIA (IFNAR1 478-512 E496A (Homo sapiens, UniProt P17181))	TYK2 23-583 (Homo sapiens, UniProt P29597)	differential scanning fluorimetry	peptide	–	–	apparent Tm reduction	1 °C
